Experimental data gathered from unrelated publications.
Lines come from different studies, so protocols differ. ± gives the spread as reported.
UCHL1: Ubiquitin carboxyl-terminal hydrolase isozyme L1 (UCHL1, Homo sapiens, UniProt P09936)
UniProt P09936, sequence (whole entry, looked up): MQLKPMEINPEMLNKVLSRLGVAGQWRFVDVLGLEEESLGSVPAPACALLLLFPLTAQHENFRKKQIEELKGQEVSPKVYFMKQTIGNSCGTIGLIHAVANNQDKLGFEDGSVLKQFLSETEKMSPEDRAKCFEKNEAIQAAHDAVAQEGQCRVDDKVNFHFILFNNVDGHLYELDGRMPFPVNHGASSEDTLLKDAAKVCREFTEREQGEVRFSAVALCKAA

CCOC(=O)c1nn(-c2cccc(Cl)c2)/c(=N/N=C(\C)c2ccc(NC(=O)c3ccc(Cl)cc3)cc2)s1
cytotoxicity (MCF7; MTT; 5 µM): 96.3%

OCc1ccc(Nc2ccc3c(Nc4cccc(C(F)(F)F)c4)ncnc3c2)cc1
late apoptotic cells (MCF7; annexin V-PE/DAPI; concentration not given, 24 h): 16.8%

C=CC(=O)c1cccnc1Nc1cc(C(F)(F)F)ccc1OC
TEAD reporter activity (MCF7; firefly luciferase reporter; 100 µM, 6 h; reference: vehicle): 1.6 ± 0.1%

COc1ccc(-n2nc(C(C)=O)s/c2=N\N=C(/C)c2ccc(NC(=O)c3ccccc3)cc2)cc1
toxicity (MCF7; 2.5 µM): 97.5%

CCOC(=O)CSc1nc(-c2ccc(Cl)cc2)c2c(NC(=O)c3ccccc3)nnc-2[nH]1
cell growth (MCF7; SRB; 10 µM, NCI60 single-dose screen; reference: untreated): 92.6%

CC(=O)c1nn(-c2ccc(C)cc2)/c(=N/N=C(\C)c2ccc(NC(=O)c3ccccc3)cc2)s1
cytotoxicity (MCF7; MTT; 0.078 µM): 55.1%

COc1cccc(NC(=O)C(C#N)=Cc2cccc(Cl)c2Cl)c1
labelling (UCHL1; covalent, intact protein LC-MS; 12.5 µM): 43.2%

CC(C)(C)OC(=O)N1CCC(Oc2ccc(Cl)cc2C(=O)N[C@@H](Cc2ccccc2)C(=O)Nc2ccc([N+](=O)[O-])cc2Cl)CC1
antiproliferative activity (MCF7; up to 10 µM, 72 h): inactive

CC(=NN=c1sc(N=Nc2ccc(C)cc2)c(C)n1C)c1c(O)c2ccccc2oc1=O
selectivity index (MCF7; cell growth, MTT; reference: IC50 BJ-1 over MCF7): > 4.29

C=C1CN(S(=O)(=O)c2ccc(C)cc2)CCCN(CC2CCCCC2)CCCN(S(=O)(=O)c2ccc(OCCO)cc2)C1.Cl
mammosphere formation (MCF7; 4 µM, 48 h, with: progranulin 1 µg/mL): decreased

COc1ccc(-n2nc(C(C)=O)s/c2=N\N=C(/C)c2ccc(NC(=O)c3ccc(C)cc3)cc2)cc1
viability (MCF7; 0.156 µM): 56.1%

CCCC(CCC)C(=O)OCc1cn(-c2c3ccccc3nc3ccccc23)nn1
growth percentage (MCF7; NCI60 single-dose screen; 10 µM): 97.2%

C[C@@H]1CC[C@@H]([C@](C)(O)CNCc2cccc3ccccc23)[C@H](OCc2ccccc2)C1
IC50 (MCF7; cell growth, inhibitor, MTT; 72 h): 4.26 µM

CCOC(=O)c1nn(-c2cccc(Cl)c2)/c(=N/N=C(\C)c2ccc(NC(=O)c3ccccc3)cc2)s1
cytotoxicity (MCF7; MTT; 10 µM): 97.6%

C=CC(=O)c1cccnc1Nc1cc(NC(=O)c2ccccc2)ccc1OC
TEAD reporter activity (MCF7; firefly luciferase reporter; 25 µM, 6 h; reference: vehicle): 78.7 ± 7.7%

O=[N+]([O-])c1cc(Br)c(O)c(C=NNc2ccc(C(F)(F)F)cc2)c1
early apoptotic cells (MCF7; annexin V; IC50, 24 h): 61.1%

O=C(/C=C/C=C/C=C/C1CCCCC1)NC1=C[C@@](O)(/C=C/C=C/C=C/C(=O)NC2=C(O)CCC2=O)[C@@H]2O[C@@H]2C1=O
GI50 (MCF7; cell growth, CellTiter-Glo; 78 h): 16.4 µM

CC(=O)c1nn(-c2ccc(Cl)cc2)/c(=N/N=C(\C)c2ccc(NC(=O)c3ccc(Cl)cc3)cc2)s1
toxicity (MCF7; 0.625 µM): 0.129%

CC#CC(=O)NC1CCN(C(=O)c2noc(C)c2Cn2cc(Cl)cn2)C1 (stereo not shown)
labelling (UCHL1; covalent, intact protein LC-MS; 12.5 µM): 9.32%

CCn1c(C)c(N=Nc2ccc(C)cc2)sc1=NN=C(C)c1c(O)c2ccccc2oc1=O
selectivity index (MCF7; cell growth, MTT; reference: IC50 BJ-1 over MCF7): > 5.62

CN1CCN(c2ccc3[nH]c(-c4ccc5[nH]c(-c6ccc(C(F)(F)F)cc6)nc5c4)nc3c2)CC1
growth percent (MCF7; SRB; 10 µM, 48 h): 4.4%

CCC(=O)c1cccnc1Nc1cccc(C(F)(F)F)c1
TEAD reporter activity (MCF7; firefly luciferase reporter; 25 µM, 6 h; reference: vehicle): 73.4 ± 6.5%

C=CC(=O)N1CCC(COCC(=O)N2CCN(c3nc(-c4cnc(N)nc4C(F)F)nc(N4CCOC[C@@H]4C)n3)CC2)CC1
GR50 (MCF7; resazurin growth rate inhibition; 72 h): 5.9 nM

CC/C(=C(\c1ccccc1)c1ccc(OCCN(C)C)cc1)c1ccccc1
log2 fold change (MCF7; RNA-seq, measured: SGK3 mRNA; 1 µM, 24 h, E2-induced gene; reference: DMSO vehicle): -1.56

C=CC(=O)c1cccnc1Nc1cc(Cl)ccc1OC
TEAD reporter activity (MCF7; firefly luciferase reporter; 50 µM, 6 h; reference: vehicle): 48.2 ± 4.6%

Repeated from above:
CC(=O)c1nn(-c2ccc(C)cc2)/c(=N/N=C(\C)c2ccc(NC(=O)c3ccccc3)cc2)s1
cytotoxicity (MCF7; MTT; 0.078 µM): 55.1%

CCC(=O)c1cccnc1Nc1cccc(C(F)(F)F)c1
TEAD reporter activity (MCF7; firefly luciferase reporter; 25 µM, 6 h; reference: vehicle): 73.4 ± 6.5%
